{"data": "Earlier results that unrelated publications cite", "note": "Protocols differ between the studies behind these lines. Numbers after ± are the reported error.", "sequence of UniProt Q96PY6 (whole entry, looked up)": "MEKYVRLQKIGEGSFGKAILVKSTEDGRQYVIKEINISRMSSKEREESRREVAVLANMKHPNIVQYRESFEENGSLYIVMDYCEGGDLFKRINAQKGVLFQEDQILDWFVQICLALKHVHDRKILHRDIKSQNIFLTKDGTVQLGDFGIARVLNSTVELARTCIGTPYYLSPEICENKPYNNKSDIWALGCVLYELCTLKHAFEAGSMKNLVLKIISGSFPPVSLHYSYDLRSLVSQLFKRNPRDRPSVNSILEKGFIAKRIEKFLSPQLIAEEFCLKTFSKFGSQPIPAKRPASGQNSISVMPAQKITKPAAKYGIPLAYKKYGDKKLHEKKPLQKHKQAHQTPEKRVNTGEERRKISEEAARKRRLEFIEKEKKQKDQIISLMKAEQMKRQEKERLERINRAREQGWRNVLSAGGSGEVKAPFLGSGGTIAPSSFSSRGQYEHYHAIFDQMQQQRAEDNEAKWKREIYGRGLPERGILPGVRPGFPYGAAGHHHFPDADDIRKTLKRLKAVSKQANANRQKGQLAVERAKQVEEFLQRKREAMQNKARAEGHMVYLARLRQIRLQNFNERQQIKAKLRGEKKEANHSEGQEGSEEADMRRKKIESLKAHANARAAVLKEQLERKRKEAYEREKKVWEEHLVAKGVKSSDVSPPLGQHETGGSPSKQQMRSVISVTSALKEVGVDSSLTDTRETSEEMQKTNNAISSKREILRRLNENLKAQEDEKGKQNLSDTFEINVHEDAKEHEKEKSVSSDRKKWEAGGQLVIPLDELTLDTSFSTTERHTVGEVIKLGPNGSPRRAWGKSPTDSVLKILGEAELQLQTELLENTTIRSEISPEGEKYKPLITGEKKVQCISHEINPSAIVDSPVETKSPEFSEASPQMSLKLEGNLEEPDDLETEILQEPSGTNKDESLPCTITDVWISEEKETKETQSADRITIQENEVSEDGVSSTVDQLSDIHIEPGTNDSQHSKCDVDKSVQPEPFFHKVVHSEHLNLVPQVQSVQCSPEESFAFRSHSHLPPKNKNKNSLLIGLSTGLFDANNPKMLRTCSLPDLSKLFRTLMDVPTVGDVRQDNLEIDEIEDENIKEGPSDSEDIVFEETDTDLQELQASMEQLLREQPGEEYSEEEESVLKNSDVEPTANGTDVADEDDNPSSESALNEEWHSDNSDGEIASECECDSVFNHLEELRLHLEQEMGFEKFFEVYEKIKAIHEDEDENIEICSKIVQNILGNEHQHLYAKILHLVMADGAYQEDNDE"}
{"Structure (SMILES)": "O=C(Nc1cccc2cnccc12)NC1CCc2cc(F)ccc2C1Cc1ccc(C(F)(F)F)cc1 (stereo not shown)", "target or system": "TRPV1", "test": "calcium flux, antagonist", "test system": "HEK293", "setting": "with: capsaicin", "quantity": "IC50", "value": "10 nM"}
{"Structure (SMILES)": "CCCCCCOC(=O)/C=C/c1ccc(O)c(O)c1", "target or system": "xanthine oxidase", "test": "inhibitor", "quantity": "IC50", "value": "19000 ± 1000 nM"}
{"Structure (SMILES)": "O=c1c(O)c(-c2cc(O)c(O)c(O)c2)oc2cc(O)cc(O)c12", "target or system": "PTP1B", "quantity": "IC50", "value": "13000 to 20000 nM"}
{"Structure (SMILES)": "O=C(Nc1cccc(C(F)(F)F)c1)Nc1cccc2cnccc12", "target or system": "TRPV1", "test": "calcium flux, antagonist", "test system": "HEK293", "setting": "with: capsaicin", "quantity": "IC50", "value": "32 nM"}
{"Structure (SMILES)": "CCCCCCCC/C=C\\CCCCCCCC(=O)NCCO", "target or system": "acid ceramidase", "test": "enzyme activity, radiometric", "test system": "HL-60", "quantity": "IC50", "value": "> 500000 nM"}
{"Structure (SMILES)": "COC1COCCC1NC1CC2OCCC2(C(=O)N2CCc3ncc(C(F)(F)F)cc3C2)C1 (stereo not shown)", "target or system": "CCR2", "setting": "3D-QSAR training set", "quantity": "IC50", "value": "93 nM"}
{"Structure (SMILES)": "CCN(CC)CCOC(=O)c1ccc(N)cc1", "target or system": "sodium channel", "quantity": "IC50", "value": "60000 nM"}
{"Structure (SMILES)": "Fc1c(-c2cccc3cccc(F)c23)ncc2c(N3C[C@H]4CC[C@@H](C3)N4)nc(OC[C@@]34CCCN3C[C@H](F)C4)nc12", "target or system": "KRAS", "quantity": "IC50", "value": "12 nM"}
{"Structure (SMILES)": "O=C(O)c1cc(N2N=C(C(F)(F)F)/C(=C/c3ccc(-c4ccccc4)o3)C2=O)ccc1Cl", "target or system": "MAO-A", "test": "inhibitor", "quantity": "IC50", "value": "7900 nM"}
{"Structure (SMILES)": "O=C(NCc1ccc(-c2ccccc2)nc1N1CCCCC1)Nc1cccc2[nH]ncc12", "target or system": "TRPV1", "test": "calcium flux, antagonist", "test system": "HEK293", "setting": "with: capsaicin", "quantity": "IC50", "value": "14 nM"}
{"Structure (SMILES)": "COCCNc1nc2ccc(C#CC3(O)CCCCC3)cc2n1-c1ccnc(N)n1", "target or system": "PAK5", "test": "inhibitor", "quantity": "IC50", "value": "126 nM"}
{"Structure (SMILES)": "C[C@]1(O)C[C@@H](c2nc(-c3ccc4ccc(-c5ccccc5)nc4c3)c3c(N)nccn32)C1", "target or system": "FECH", "quantity": "IC50", "value": "2200 nM"}
{"Structure (SMILES)": "COC(=O)c1cc(O)c(O)c(O)c1", "target or system": "xanthine oxidase", "test": "inhibitor", "quantity": "IC50", "value": "212000 ± 400 nM"}
{"Structure (SMILES)": "CO[C@@H]1COCC[C@@H]1N[C@@H]1C[C@H]2CCC[C@@]2(C(=O)N2C[C@@H]3C[C@H]2CN3c2ncc(C(F)(F)F)cc2Cl)C1", "target or system": "CCR2", "setting": "3D-QSAR training set", "quantity": "IC50", "value": "314 nM"}
{"Structure (SMILES)": "CCOP(=O)(OCC)C(=Cc1cc(C(C)(C)C)c(O)c(C(C)(C)C)c1)P(=O)(OCC)OCC", "target or system": "pregnane X receptor, human", "test": "binding", "quantity": "IC50", "value": "167 nM"}
{"Structure (SMILES)": "NC(=O)N1c2ccccc2C=Cc2ccccc21", "target or system": "sodium channel", "test system": "rat brain synaptosomes", "quantity": "IC50", "value": "131000 nM"}
{"Structure (SMILES)": "COc1cc2c(Nc3ccc(Cl)c(Cl)c3F)ncnc2cc1OC[C@@H]1C[C@@H]2CN(C)C[C@@H]2C1", "target or system": "EGFR wild type", "quantity": "IC50", "value": "0.3 nM"}
{"Structure (SMILES)": "O=C(Nc1ccccc1)c1cc([N+](=O)[O-])ccc1Cl", "target or system": "PPARγ", "setting": "published value", "quantity": "IC50", "value": "5 nM"}
{"Structure (SMILES)": "Cc1ccc2[nH]c(-c3ccc(S(N)(=O)=O)cc3)c(-c3ccccc3)c2c1", "target or system": "COX-2", "quantity": "IC50", "value": "0.02 nM"}
{"Structure (SMILES)": "O=C(NCc1ccc(C(F)(F)F)cc1)Nc1cccc2cnccc12", "target or system": "TRPV1", "test": "calcium flux, antagonist", "test system": "HEK293", "setting": "with: capsaicin", "quantity": "IC50", "value": "5 nM"}
{"Structure (SMILES)": "CCC(=O)NS(=O)(=O)c1ccc(-c2c(-c3ccccc3)noc2C)cc1", "target or system": "NR4A2 (Nurr1)", "test": "inverse agonist, cellular", "quantity": "IC50", "value": "13400 ± 300 nM"}
{"Structure (SMILES)": "C=C[C@](C)(O)CC[C@H]1C(=C)CC[C@H]2C(C)(C)CCC[C@]12C", "target or system": "carbonic anhydrase IX", "quantity": "IC50", "value": "160 ± 15 nM"}
{"Structure (SMILES)": "O=C(NCCc1ccc(OC(F)(F)F)cc1)Nc1cccc2cnccc12", "target or system": "TRPV1", "test": "calcium flux, antagonist", "test system": "HEK293", "setting": "with: capsaicin", "quantity": "IC50", "value": "11 nM"}
{"Structure (SMILES)": "COCCCC/C(=N\\OCCN)c1ccc(C(F)(F)F)cc1", "target or system": "sigma-2 receptor", "setting": "literature value", "quantity": "IC50", "value": "8000 nM"}
{"Structure (SMILES)": "CC(C)(O/N=C(\\C(=O)N[C@@H]1C(=O)N2C(C(=O)[O-])=C(C[n+]3ccccc3)CS[C@H]12)c1csc(N)n1)C(=O)O", "target or system": "Escherichia coli", "test system": "clinical isolate RKI-No_314/16", "quantity": "MIC", "value": "≤ 2 µg/mL"}
{"Structure (SMILES)": "COc1ccc(-c2noc(CC(=O)O)c2-c2ccc(OC)cc2)cc1", "target or system": "NR4A3 (NOR-1)", "test": "inverse agonist, cellular", "quantity": "IC50", "value": "33000 ± 5000 nM"}
{"Structure (SMILES)": "CNCCCN1c2ccccc2CCc2ccccc21", "target or system": "sigma-2 receptor", "setting": "literature value", "quantity": "IC50", "value": "11000 nM"}
{"Structure (SMILES)": "Cc1cnc(NC(=O)c2cc(S(=O)(=O)N(C)C)ccc2N2CCCC2)s1", "target or system": "oligosaccharyltransferase", "quantity": "IC50", "value": "~1000 nM"}
{"Structure (SMILES)": "O=C(CCc1ccc(C(F)(F)F)cc1)Nc1cccc2cnccc12", "target or system": "TRPV1", "test": "calcium flux, antagonist", "test system": "HEK293", "setting": "with: capsaicin", "quantity": "IC50", "value": "38 nM"}
{"Structure (SMILES)": "NC(=O)N1c2ccccc2CC(=O)c2ccccc21", "target or system": "sodium channel", "test": "binding", "setting": "with: [3H]batrachotoxin", "quantity": "IC50", "value": "160000 nM"}
{"Structure (SMILES)": "CN(CCN)Cc1csc(-c2ccc(C(=N)N)nc2)n1", "target or system": "CARM1 (PRMT4)", "test": "enzyme activity, inhibitor", "quantity": "IC50", "value": "1640 nM"}
{"Structure (SMILES)": "CCS(=O)(=O)Nc1ccc(Oc2ccc(F)cc2F)c(-c2cn(C)c(=O)c3[nH]ccc23)c1", "target or system": "BET bromodomains", "test": "inhibitor", "quantity": "IC50", "value": "1.5 nM"}
{"Structure (SMILES)": "N[C@@H](CCC(=O)O)C(=O)O", "target or system": "kainate glutamate receptor", "test": "radioligand binding", "quantity": "IC50", "value": "240 nM"}
{"Structure (SMILES)": "CC(C)c1cc(C(=O)N2Cc3ccc(CN4CCN(C)CC4)cc3C2)c(O)cc1O", "target or system": "Hsp90", "test": "inhibitor", "quantity": "IC50", "value": "18 nM"}
{"Structure (SMILES)": "COc1cc(N2CCC3(CCN(C)CC3)CC2)ccc1Nc1ncc(Cl)c(Nc2ccccc2P(C)(C)=O)n1", "target or system": "ALK C1156Y", "quantity": "IC50", "value": "9 nM"}
{"Structure (SMILES)": "COc1ccc(CNc2c(CO)cnc3c(C4CC4)cc(C#N)cc23)cc1Cl", "target or system": "PDE7", "test": "inhibitor", "quantity": "IC50", "value": "> 10000 nM"}
{"Structure (SMILES)": "CC(C)(C)c1ccc(NC(=O)c2ccc(-c3ncccc3Cl)cc2)cc1", "target or system": "TRPV1", "test": "calcium flux, antagonist", "test system": "HEK293", "setting": "with: capsaicin", "quantity": "IC50", "value": "8 nM"}
{"Structure (SMILES)": "C[C@H](NC(=O)[C@H](CC(=O)NCC(C)(C)C)NC(=O)c1ccc(C(=O)NO)cc1)C(=O)NCc1ccccc1", "target or system": "proteasome", "test": "chymotrypsin-like activity, inhibitor", "test system": "SUP-B15r", "quantity": "IC50", "value": "820 nM"}
{"Structure (SMILES)": "CC(C)(C)c1ccc(/C=C/C(=O)Nc2cccc3cnccc23)cc1", "target or system": "TRPV1", "test": "calcium flux, antagonist", "test system": "HEK293", "setting": "with: capsaicin", "quantity": "IC50", "value": "5 nM"}
{"Structure (SMILES)": "N[C@@H](CCC(=O)O)C(=O)O", "target or system": "kainate glutamate receptor", "test": "binding", "setting": "historical reference value", "quantity": "IC50", "value": "240 nM"}
{"Structure (SMILES)": "CO[C@@H]1COCC[C@@H]1N[C@@H]1C[C@H]2CCC[C@@]2(C(=O)N2C[C@@H]3C[C@H]2CN3c2cc(C(F)(F)F)ccc2C)C1", "target or system": "CCR2", "setting": "3D-QSAR training set", "quantity": "IC50", "value": "106 nM"}
{"Structure (SMILES)": "CC1(C)S[C@@H]2[C@H](NC(=O)[C@H](N)c3ccccc3)C(=O)N2[C@H]1C(=O)O", "target or system": "Enterobacter cloacae", "test system": "clinical isolate RKI-No_348/15", "quantity": "MIC", "value": "> 16 µg/mL"}
{"Structure (SMILES)": "CCCCCCCCCCCCOC(=O)c1cc(O)c(O)c(O)c1", "target or system": "xanthine oxidase", "test": "inhibitor", "quantity": "IC50", "value": "49000 ± 210 nM"}
{"Structure (SMILES)": "COC(=O)c1c[nH]c2ccccc12", "target or system": "NR4A2 (Nurr1)", "test": "inverse agonist, cellular", "quantity": "IC50", "value": "48000 nM"}
{"Structure (SMILES)": "NCCC(Oc1ccc(C(F)(F)F)cc1)c1ccccc1 (stereo not shown)", "target or system": "sigma-1 receptor", "setting": "literature value", "quantity": "IC50", "value": "2400 nM"}
{"Structure (SMILES)": "CC(C)C(=O)Nc1nc(-c2ccc(O)cc2O)cs1", "target or system": "Agaricus bisporus tyrosinase", "test": "inhibitor", "quantity": "IC50", "value": "~108000 nM"}
{"Structure (SMILES)": "Nc1cc(C(F)(F)F)c(-c2nc(N3CCOCC3)nc(N3CCOCC3)n2)cn1", "target or system": "NEK1 (Homo sapiens, UniProt Q96PY6)", "test": "enzyme activity", "setting": "10 µM", "how to read": "baseline: untreated", "quantity": "remaining activity", "value": "76%"}
{"Structure (SMILES)": "CCN(CC)CCCCNc1ncc2cc(-c3cc(OC)cc(OC)c3)c(NC(=O)NC(C)(C)C)nc2n1", "target or system": "MEK", "test": "inhibitor", "quantity": "IC50", "value": "> 50000 nM"}
{"Structure (SMILES)": "COC(=O)/C=C/c1ccc(O)c(O)c1", "target or system": "xanthine oxidase", "test": "inhibitor", "quantity": "IC50", "value": "143000 ± 13000 nM"}
{"Structure (SMILES)": "OB(O)c1cc2ccccc2s1", "target or system": "Escherichia coli AmpC β-lactamase", "test": "enzyme activity, inhibitor", "quantity": "IC50", "value": "27 nM"}
{"Structure (SMILES)": "Cc1ccc2nc(NC(=O)CSc3nc4c(c(=O)n3-c3ccc(F)cc3)SCC4)sc2c1", "target or system": "casein kinase 1 delta", "test": "inhibitor", "quantity": "IC50", "value": "1890 nM"}
{"Structure (SMILES)": "CN(C)CCCC1(c2ccc(F)cc2)OCc2cc(C#N)ccc21 (stereo not shown)", "target or system": "sigma-1 receptor", "setting": "literature value", "quantity": "IC50", "value": "300 nM"}
{"note": "A few entries again:"}
{"Structure (SMILES)": "CCC(=O)NS(=O)(=O)c1ccc(-c2c(-c3ccccc3)noc2C)cc1", "target or system": "NR4A2 (Nurr1)", "test": "inverse agonist, cellular", "quantity": "IC50", "value": "13400 ± 300 nM"}
{"Structure (SMILES)": "O=c1c(O)c(-c2cc(O)c(O)c(O)c2)oc2cc(O)cc(O)c12", "target or system": "PTP1B", "quantity": "IC50", "value": "13000 to 20000 nM"}
{"Structure (SMILES)": "CC(C)(O/N=C(\\C(=O)N[C@@H]1C(=O)N2C(C(=O)[O-])=C(C[n+]3ccccc3)CS[C@H]12)c1csc(N)n1)C(=O)O", "target or system": "Escherichia coli", "test system": "clinical isolate RKI-No_314/16", "quantity": "MIC", "value": "≤ 2 µg/mL"}
